Measurements collected from several papers.
Lines come from different studies, so protocols differ. “And” joins repeats or separate records; there may be more than shown. ± marks the error that the study gave.
SEC14: SEC14 (Saccharomyces cerevisiae, UniProt P24280)
Sequence of UniProt P24280 (whole entry, looked up): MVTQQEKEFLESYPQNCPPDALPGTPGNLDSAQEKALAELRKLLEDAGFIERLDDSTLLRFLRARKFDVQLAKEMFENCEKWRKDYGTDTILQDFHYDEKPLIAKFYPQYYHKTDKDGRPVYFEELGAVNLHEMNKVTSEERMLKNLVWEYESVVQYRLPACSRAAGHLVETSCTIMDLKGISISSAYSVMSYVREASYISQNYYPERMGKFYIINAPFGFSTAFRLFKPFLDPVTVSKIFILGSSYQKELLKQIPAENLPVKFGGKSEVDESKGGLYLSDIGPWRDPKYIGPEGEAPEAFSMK
Seed linoleate 13S-lipoxygenase-1: Seed linoleate 13S-lipoxygenase-1 (Glycine max, UniProt P08170)
Sequence of UniProt P08170 (whole entry, looked up): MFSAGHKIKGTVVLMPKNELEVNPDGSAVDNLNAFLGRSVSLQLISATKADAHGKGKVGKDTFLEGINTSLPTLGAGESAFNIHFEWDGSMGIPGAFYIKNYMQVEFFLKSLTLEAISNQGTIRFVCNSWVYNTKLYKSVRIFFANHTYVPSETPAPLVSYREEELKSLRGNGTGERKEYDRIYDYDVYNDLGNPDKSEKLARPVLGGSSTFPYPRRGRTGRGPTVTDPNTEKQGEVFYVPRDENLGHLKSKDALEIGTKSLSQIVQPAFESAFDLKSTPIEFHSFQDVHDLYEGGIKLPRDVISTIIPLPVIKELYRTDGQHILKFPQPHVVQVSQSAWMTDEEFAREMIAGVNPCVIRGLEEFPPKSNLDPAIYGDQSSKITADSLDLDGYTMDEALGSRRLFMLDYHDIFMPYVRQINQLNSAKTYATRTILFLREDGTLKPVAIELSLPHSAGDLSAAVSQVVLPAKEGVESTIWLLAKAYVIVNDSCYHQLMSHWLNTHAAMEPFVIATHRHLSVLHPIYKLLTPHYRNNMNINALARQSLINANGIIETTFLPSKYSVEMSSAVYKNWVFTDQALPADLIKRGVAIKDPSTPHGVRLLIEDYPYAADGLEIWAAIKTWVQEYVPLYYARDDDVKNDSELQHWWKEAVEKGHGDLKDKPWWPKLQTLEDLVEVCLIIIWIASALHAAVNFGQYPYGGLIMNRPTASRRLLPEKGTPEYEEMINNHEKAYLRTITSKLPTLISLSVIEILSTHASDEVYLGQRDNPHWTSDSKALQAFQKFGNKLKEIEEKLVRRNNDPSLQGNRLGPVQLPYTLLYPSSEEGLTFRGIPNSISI
PTGS1: Prostaglandin G/H synthase 1 (PTGS1, Homo sapiens, UniProt P23219)
Sequence of UniProt P23219 (whole entry, looked up): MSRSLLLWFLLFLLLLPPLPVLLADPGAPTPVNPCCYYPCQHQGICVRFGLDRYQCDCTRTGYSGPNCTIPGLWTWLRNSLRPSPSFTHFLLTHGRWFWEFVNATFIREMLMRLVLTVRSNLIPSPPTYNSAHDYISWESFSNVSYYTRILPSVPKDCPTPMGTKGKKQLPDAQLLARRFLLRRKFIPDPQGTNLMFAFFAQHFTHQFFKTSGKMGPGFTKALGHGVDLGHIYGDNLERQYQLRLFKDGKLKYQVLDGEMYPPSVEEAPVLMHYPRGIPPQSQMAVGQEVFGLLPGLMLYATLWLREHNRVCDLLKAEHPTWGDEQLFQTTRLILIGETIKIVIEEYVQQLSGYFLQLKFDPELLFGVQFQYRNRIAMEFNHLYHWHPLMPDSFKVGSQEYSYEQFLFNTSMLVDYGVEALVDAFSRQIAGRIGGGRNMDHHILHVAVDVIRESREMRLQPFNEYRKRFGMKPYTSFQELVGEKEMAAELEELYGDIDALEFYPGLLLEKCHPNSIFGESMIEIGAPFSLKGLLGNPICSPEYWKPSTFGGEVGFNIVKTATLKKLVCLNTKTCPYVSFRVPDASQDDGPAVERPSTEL
MAPK7: Mitogen-activated protein kinase 7 (MAPK7, Homo sapiens, UniProt Q13164)
Sequence of UniProt Q13164 (whole entry, looked up): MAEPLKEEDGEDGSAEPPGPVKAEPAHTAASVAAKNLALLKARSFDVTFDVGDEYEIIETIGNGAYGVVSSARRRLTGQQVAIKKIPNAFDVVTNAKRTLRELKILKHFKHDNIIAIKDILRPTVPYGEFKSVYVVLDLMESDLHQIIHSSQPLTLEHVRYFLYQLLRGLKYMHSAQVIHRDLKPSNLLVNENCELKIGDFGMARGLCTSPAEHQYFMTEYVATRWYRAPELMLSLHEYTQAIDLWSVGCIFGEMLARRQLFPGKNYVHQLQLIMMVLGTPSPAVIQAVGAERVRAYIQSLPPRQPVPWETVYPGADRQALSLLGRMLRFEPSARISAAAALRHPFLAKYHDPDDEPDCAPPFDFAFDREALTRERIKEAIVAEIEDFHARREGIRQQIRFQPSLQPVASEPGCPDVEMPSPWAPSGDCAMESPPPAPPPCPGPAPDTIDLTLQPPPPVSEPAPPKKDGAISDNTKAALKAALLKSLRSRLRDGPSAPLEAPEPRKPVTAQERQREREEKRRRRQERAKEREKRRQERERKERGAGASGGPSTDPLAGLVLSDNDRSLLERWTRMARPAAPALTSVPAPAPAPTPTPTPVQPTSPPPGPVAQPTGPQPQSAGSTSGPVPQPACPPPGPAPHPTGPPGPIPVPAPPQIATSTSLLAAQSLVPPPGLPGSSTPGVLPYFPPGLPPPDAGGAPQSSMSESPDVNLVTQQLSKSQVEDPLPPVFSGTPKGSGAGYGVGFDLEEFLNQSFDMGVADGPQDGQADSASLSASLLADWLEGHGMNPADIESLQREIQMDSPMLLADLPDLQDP
Sequence of UniProt P37288 (whole entry, looked up): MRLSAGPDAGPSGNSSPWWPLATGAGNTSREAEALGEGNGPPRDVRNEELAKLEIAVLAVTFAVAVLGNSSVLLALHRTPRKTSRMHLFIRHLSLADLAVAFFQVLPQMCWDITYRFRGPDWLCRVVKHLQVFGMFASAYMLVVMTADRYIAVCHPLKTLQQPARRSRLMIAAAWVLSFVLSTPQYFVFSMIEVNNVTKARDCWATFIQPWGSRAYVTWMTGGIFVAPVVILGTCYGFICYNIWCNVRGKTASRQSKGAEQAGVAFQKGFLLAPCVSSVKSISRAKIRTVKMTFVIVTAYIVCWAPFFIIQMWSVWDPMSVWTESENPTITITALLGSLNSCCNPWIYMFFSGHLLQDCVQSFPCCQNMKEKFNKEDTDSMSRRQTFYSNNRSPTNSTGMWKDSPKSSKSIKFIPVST
Sequence of UniProt P47811 (whole entry, looked up): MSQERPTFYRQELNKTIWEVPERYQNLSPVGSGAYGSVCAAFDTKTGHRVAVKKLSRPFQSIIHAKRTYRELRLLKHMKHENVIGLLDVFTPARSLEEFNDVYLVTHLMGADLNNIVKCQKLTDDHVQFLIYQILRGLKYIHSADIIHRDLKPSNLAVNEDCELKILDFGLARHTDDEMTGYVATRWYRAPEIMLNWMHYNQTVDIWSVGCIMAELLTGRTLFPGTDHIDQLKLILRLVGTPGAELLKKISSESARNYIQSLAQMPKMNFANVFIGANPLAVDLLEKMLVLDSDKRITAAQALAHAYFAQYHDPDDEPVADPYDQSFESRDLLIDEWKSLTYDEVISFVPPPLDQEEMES
Sequence of UniProt Q6SZW1 (whole entry, unmodified, looked up): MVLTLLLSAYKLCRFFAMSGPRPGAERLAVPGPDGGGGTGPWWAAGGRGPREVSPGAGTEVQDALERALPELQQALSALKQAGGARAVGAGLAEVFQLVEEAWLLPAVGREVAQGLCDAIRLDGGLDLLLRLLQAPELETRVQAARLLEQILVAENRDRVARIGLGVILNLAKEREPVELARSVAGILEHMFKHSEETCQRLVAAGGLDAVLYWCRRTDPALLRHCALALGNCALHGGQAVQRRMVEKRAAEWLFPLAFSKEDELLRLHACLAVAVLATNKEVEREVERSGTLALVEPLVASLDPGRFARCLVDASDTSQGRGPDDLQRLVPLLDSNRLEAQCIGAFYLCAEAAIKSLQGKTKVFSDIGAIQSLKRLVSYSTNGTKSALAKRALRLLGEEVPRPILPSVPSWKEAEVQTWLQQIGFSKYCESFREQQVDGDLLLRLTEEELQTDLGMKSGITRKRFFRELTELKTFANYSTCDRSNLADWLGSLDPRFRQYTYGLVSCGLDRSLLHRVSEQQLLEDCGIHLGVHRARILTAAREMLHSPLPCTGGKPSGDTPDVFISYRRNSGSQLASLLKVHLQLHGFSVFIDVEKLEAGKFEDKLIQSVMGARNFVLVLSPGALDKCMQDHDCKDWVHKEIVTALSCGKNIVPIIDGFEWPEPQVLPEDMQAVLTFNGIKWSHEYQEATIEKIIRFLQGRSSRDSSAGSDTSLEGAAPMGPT
Sequence of UniProt Q99436 (whole entry, looked up): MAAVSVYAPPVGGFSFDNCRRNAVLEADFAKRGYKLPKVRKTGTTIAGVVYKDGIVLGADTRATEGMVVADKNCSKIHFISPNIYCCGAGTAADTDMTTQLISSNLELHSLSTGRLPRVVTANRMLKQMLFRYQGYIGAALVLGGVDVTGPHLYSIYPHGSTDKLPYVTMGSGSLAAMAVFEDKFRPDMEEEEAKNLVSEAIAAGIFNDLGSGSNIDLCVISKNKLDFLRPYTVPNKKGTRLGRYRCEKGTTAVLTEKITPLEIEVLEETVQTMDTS
Sequence of UniProt P28907 (whole entry, looked up): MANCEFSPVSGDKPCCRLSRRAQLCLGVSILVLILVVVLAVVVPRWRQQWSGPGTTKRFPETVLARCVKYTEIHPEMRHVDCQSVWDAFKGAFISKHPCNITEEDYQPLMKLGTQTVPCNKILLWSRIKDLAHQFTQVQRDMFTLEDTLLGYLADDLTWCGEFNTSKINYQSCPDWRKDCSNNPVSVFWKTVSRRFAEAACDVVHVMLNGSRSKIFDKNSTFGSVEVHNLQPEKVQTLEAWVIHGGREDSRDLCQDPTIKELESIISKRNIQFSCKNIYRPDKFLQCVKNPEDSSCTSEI
Sequence of UniProt P52699 (whole entry, looked up): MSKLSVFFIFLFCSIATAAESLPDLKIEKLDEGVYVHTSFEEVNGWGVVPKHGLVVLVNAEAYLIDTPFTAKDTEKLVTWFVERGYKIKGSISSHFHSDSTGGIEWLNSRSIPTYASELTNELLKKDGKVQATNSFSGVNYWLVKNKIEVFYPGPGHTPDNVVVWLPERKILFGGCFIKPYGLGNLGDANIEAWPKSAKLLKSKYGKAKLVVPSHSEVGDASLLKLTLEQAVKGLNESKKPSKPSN

SMILES	target	test	system	conditions	IC50
Nc1nc(Cl)nc2c1ncn2Cc1cc(OCC(F)F)cc(OC(F)F)c1	PDE9A (Homo sapiens, UniProt O76083)	enzyme activity, inhibitor	–	–	> 10 µM
N#Cc1c(Nc2c(Cl)ccc3ncccc23)s[nH]c1=O	SARM1 (Homo sapiens, UniProt Q6SZW1, C635A)	enzyme activity, inhibitor	–	–	17 µM
CCCn1cnc(C[C@H](NC(=O)c2cnc(C)cn2)C(=O)N2CCC[C@H]2C(N)=O)c1	Thyrotropin-releasing hormone receptor (Mus musculus, UniProt P21761)	ligand displacement, radioligand	–	–	> 50 µM
CC(=O)NCCN(CC(=O)NCCN(CC(=O)NCCN(CC(=O)NCCC(N)=O)C(=O)C[C@@H](N)CCCNC(=N)N)C(=O)C[C@@H](N)Cc1ccccc1)C(=O)C[C@@H](N)Cc1ccccc1	HIV-1 TAR RNA	Tat/TAR complex displacement, FRET	–	room temperature, added: 10 nM Tat/TAR complex	28.7 ± 0.5 µM
COc1ccc(-c2cc(C(F)(F)F)n3nc(N)nc3n2)cc1OC	Sensor histidine protein kinase/phosphatase WalK (walK, Streptococcus pneumoniae, UniProt Q8DPL8)	enzyme activity, ATP-competitive inhibitor	–	–	26.4 µM
O=C(c1ccc(I)c([N+](=O)[O-])c1)N1CCN(c2ccccc2F)CC1	SEC14	enzyme activity, inhibitor, radiometric	–	–	0.174 µM
Cc1cc2oc(-c3cc(-c4cnn(C5CCNCC5)c4)cnc3N)nc2cc1O	JAK2 (Homo sapiens, UniProt O60674)	enzyme activity, inhibitor, TR-FRET	–	–	0.22 µM
Cc1cc2c(c(O)c1O)C(=O)c1c(O)cc(O)cc1C2=O	AVPR1A (Homo sapiens, UniProt P37288)	agonist response, antagonist	–	added: vasopressin 10 nM	11.5 ± 1.08 µM
CNC(=O)C1CCN(c2ccccc2NC(=O)c2ccc(-c3cc(O)ccc3C)cc2)CC1	EPHB2 (Homo sapiens, UniProt P29323)	target engagement in cells, BRET	–	–	0.207 µM
CCn1c(SC(C)C(=O)Nc2ccccc2)nnc1C1CCN(C(=O)Nc2ccccc2)CC1 (stereo not shown)	Seed linoleate 13S-lipoxygenase-1	enzyme activity, inhibitor	–	–	5.76 µM and < 7 µM
COC(=O)C(CS)N1C(=O)c2cccc3c(N(C)C)ccc(c23)C1=O (stereo not shown)	Metallo-beta-lactamase type 2 (Serratia marcescens, UniProt P52699)	enzyme activity, inhibitor	–	pH 7.0, added: chromacef 25 µM	0.09 ± 0.01 µM
O=C(c1cccc(I)c1)N1CCN(c2ccc(F)cc2)CC1	SEC14	enzyme activity, inhibitor, radiometric	–	–	> 100 µM
COc1cc(/C=C2/SC(=S)N(CC(=O)Nc3cccc(C(=O)O)c3)C2=O)cc(OC)c1OC	CD38 (Homo sapiens, UniProt P28907)	enzyme activity, inhibitor, fluorescence	–	–	17.1 µM
CC(C)C[C@H](NC(=O)[C@H](CCC(=O)O)NC(=O)[C@H](CC(=O)O)NC(=O)[C@H](CCC(=O)O)NC(=O)[C@H](CC(C)C)NC(=O)[C@H](CC(C)C)NC(=O)CNC(=O)[C@H](CCC(N)=O)NC(=O)[C@H](CC(C)C)NC(=O)[C@@H](N)CCC(=O)O)C(=O)O	H-2 class I histocompatibility antigen, K-D alpha chain, 29 (H2-K1, Mus musculus, UniProt P01902)	binding, competitor, radioligand competition	–	purified MHC, mutant peptide, added: radiolabeled standard peptide	> 70 µM
CC(=O)NCCN(CC(=O)NCCN(CC(=O)NCCN(CC(=O)NCCC(N)=O)C(=O)C[C@@H](N)CCCNC(=N)N)C(=O)C[C@@H](N)CCCNC(=N)N)C(=O)C[C@@H](N)Cc1ccccc1	HIV-1 TAR RNA	Tat/TAR complex displacement, FRET	–	room temperature, added: 10 nM Tat/TAR complex	0.8 ± 0.3 µM
O=C1CCN(Cc2ccccc2)CC1C(C[N+](=O)[O-])c1ccccc1 (stereo not shown)	PTGS1	enzyme activity, inhibitor	–	–	46.1 µM
COC1C=CC=C(C)C(=O)NC2=CC(=O)C(NCCN(C)C)=C(CC(C)CC(OC)C(O)C(C)C=C(C)C1OC(N)=O)C2=O (stereo not shown)	KDM6B (Homo sapiens, UniProt O15054)	enzyme activity, inhibitor, AlphaScreen	–	–	< 1 µM

SMILES	target	test	system	conditions	IC50
CNC(=O)c1cc(C)ccc1NC(=O)c1ccc(-c2cc(O)ccc2C)c(C)c1	YES1 (Homo sapiens, UniProt P07947)	target engagement, NanoBRET	intact cells	–	> 50 µM
COc1cc(-c2nc3ccc(C(=O)NCCCN4CCN(c5cccc(C)c5C)CC4)cc3n2C2CCC2)cc(OC)c1OC	ACVR1 (Homo sapiens, UniProt Q04771, R206H)	binding, NanoBRET	HEK293	–	1.53 µM
CC(C)CCOc1cc(C[n+]2cn(CCC(C)C)c3ccccc32)c(OCCC(C)C)c2ccccc12	MAPK7	enzyme activity, inhibitor, FRET	–	–	8.8 µM
COc1cc(O)c2c(=O)cc(-c3ccccc3)oc2c1	DPP4 (Sus scrofa, UniProt P22411)	enzyme activity, inhibitor, absorbance	–	–	> 186 µM
Cc1ncccc1-c1c[nH]n(-c2ccccn2)c1=O	EGLN2 (Homo sapiens, UniProt Q96KS0)	enzyme activity, inhibitor, europium VBC binding	–	10 µM FeSO4, 2 mM ascorbate, added: 20 µM 2-oxoglutarate	0.76 µM
COc1cccc(/C=C/C(=O)c2cccc3ccccc23)c1OC	Seed linoleate 13S-lipoxygenase-1	enzyme activity, inhibitor, absorbance	–	–	92.3 µM
N#C/C(=C\c1cccc(-c2cn[nH]c2)c1)C(N)=O	Ribosomal protein S6 kinase alpha-3, C-terminal kinase domain (RPS6KA3, Homo sapiens, UniProt P51812, T493M)	kinase activity, inhibitor	–	added: 0.1 mM ATP	0.37 µM
CN(C(=O)c1ccn2ncc(-c3ccc(C(N)=O)cc3)c2c1)c1ccc(C#N)cn1	ZAP70 (Homo sapiens, UniProt P43403)	enzyme activity, inhibitor	–	–	> 10 µM
C=C(NC(=O)C(=C)NC(=O)c1csc(C2=NC3c4csc(n4)C4NC(=O)c5csc(n5)C(C(C)(O)C(C)O)NC(=O)C5CSC(=N5)C(=CC)NC(=O)C(C(C)O)NC(=O)c5csc(n5)C3(CC2)NC(=O)C(Cc2ccc(O)cc2)NC(=O)C(=C)NC(=O)C(C)NC(=O)C(C(C)CC)NC2C=Cc3c(C(C)O)cc(nc3C2O)C(=O)OC4C)n1)C(N)=O (stereo not shown)	Proteasome subunit beta type-7, in 20S proteasome (PSMB7, Homo sapiens, UniProt Q99436)	trypsin-like activity, inhibitor	purified 20S proteasome	15 min preincubation, 37 °C, added: Boc-Leu-Arg-Arg-AMC substrate	0.25 ± 0.02 µM
CCOC(=O)N1CCC(Oc2nc3c(c(=O)n(C)c(=O)n3C)n2Cc2cccc(C)c2)CC1	ALDH2 (Homo sapiens, UniProt P05091)	enzyme activity, inhibitor	–	–	3.9 µM
Fc1ccccc1NCc1cn(-c2ccccc2)nc1-c1ccc(OCc2ccccc2)cc1	PTGS1	enzyme activity, inhibitor, absorbance	–	–	95.2 µM
CC(C)C[C@H](NC(=O)[C@H](CC(N)=O)NC(=O)[C@H](CC(C)C)NC(=O)[C@@H](NC(=O)[C@@H](NC(=O)[C@@H]1CCCN1C(=O)[C@H](CCCNC(=N)N)NC(=O)[C@H](CCCCN)NC(=O)[C@@H]1CCCN1)[C@@H](C)O)[C@@H](C)O)C(=O)N[C@@H](Cc1ccccc1)C(=O)NCCCCCC(=O)N[C@@H](CCCNC(=N)N)C(=O)N[C@@H](CCCNC(=N)N)C(=O)N[C@@H](CCCNC(=N)N)C(=O)N[C@@H](CCCNC(=N)N)C(=O)N[C@@H](CCCNC(=N)N)C(=O)N[C@@H](CCCNC(=N)N)C(=O)N[C@@H](CCCNC(=N)N)C(=O)N[C@@H](CCCNC(=N)N)C(=O)N[C@@H](CCCNC(=N)N)C(N)=O	Mapk14 (Mus musculus, UniProt P47811)	enzyme activity, inhibitor, radiometric	–	pH 7.5	14.1 µM
Cc1ccc(-c2cc(C(=O)NN3CCOCC3)c3cc(Br)ccc3n2)o1	TPR (Trypanosoma brucei brucei, UniProt P39051)	inhibitor, DTNB-coupled colourimetric	–	added: substrate at Km	> 100 µM
C=CC(=O)N1CCc2ccc(-n3c(=O)ccc4cnc5ccc(-c6cnn(C)c6)cc5c43)cc21	NEK2 (Homo sapiens, UniProt P51955)	enzyme activity, inhibitor	–	–	> 10 µM
COc1cc(N2CCN(C)CC2)ccc1Nc1ncc2c(n1)N(C)c1ccc(C)cc1C(=O)N2CC(F)(F)F	MAPK7	kinase activity	HeLa	–	> 10 µM
O=C1/C=C/C(=O)N[C@@H](CC2CCCCC2)C(=O)N[C@@H](Cc2ccc(F)cc2)C(=O)N[C@@H](Cc2ccc([N+](=O)[O-])cc2)C(=O)NCCC[C@@H](C(=O)O)N1	Lck (Mus musculus, UniProt P06240)	enzyme activity, inhibitor, absorbance	–	–	6.1 µM
Cc1[nH]nc(-c2nc3ccccc3[nH]2)c1C(=O)NC1CCNCC1	PDPK1 (Homo sapiens, UniProt O15530)	enzyme activity, inhibitor	–	–	0.09 µM

Some of these lines once more:
SMILES	target	test	system	conditions	IC50
CNC(=O)c1cc(C)ccc1NC(=O)c1ccc(-c2cc(O)ccc2C)c(C)c1	YES1 (Homo sapiens, UniProt P07947)	target engagement, NanoBRET	intact cells	–	> 50 µM
N#Cc1c(Nc2c(Cl)ccc3ncccc23)s[nH]c1=O	SARM1 (Homo sapiens, UniProt Q6SZW1, C635A)	enzyme activity, inhibitor	–	–	17 µM
Cc1cc2oc(-c3cc(-c4cnn(C5CCNCC5)c4)cnc3N)nc2cc1O	JAK2 (Homo sapiens, UniProt O60674)	enzyme activity, inhibitor, TR-FRET	–	–	0.22 µM
